{"data": "Published values from different studies", "note": "Each numbered part is a random draw from the data of one study; scales do not carry over between parts. Changes are numbered by the printed parent chain."}
{"data": "Series 1", "target": "RING finger protein unkempt homolog, zinc fingers 1-6, GST-SBP tag (UNK, Homo sapiens, UniProt Q9C0B0, residues 30-357)", "technique": "RNA Bind-n-Seq", "molecule type": "RNA", "matrix": "in vitro", "concentration": "not given", "setting": "RNA with constant flanks, human and mouse sites, ends assumed", "relative to": "input RNA pool", "reading": "higher = stronger binding", "shared flanks, not repeated": "GGGAGUUCUACAGUCCGACGAUC … CAACAGAGGAUUGAGCAUCA", "chain of UniProt Q9C0B0 (30-357, looked up)": "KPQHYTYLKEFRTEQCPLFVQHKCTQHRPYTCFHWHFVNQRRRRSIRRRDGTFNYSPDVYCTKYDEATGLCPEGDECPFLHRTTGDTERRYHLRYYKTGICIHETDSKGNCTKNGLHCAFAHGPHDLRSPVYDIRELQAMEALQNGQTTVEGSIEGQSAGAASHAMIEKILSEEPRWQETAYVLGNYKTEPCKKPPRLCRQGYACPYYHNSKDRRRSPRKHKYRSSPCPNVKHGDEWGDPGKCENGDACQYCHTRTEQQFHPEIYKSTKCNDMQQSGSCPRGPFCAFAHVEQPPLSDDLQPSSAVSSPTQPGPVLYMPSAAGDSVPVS"}
{"Oligonucleotide": "GGCACCCUCAGCUUCACCAGCGCCGAGGACGACGAGGACGACGAGGACGAGGACGACGAGGAGGCUGGCCCUGACCAGCUGCCCCUCGGGGAUGGGACGUCAGGAGAAGACGCAGAACGG", "bound/input enrichment": "0.289 ratio"}
{"Oligonucleotide": "UGCCGUUUGAUUUUACACAUAAAAAGCAGUCGGGUGGUGCCGGCCAGUUUGGAAAAGUAAUAGGAGUGCUGGAGCCCUUGCCCCCAGAGGACUACACGAAGUUGGAGUUUUCUGAUGAGA", "bound/input enrichment": "0.406 ratio"}
{"Oligonucleotide": "CAACAGCAGCGAUUACUAGACAUUGCCAAGAAGGAAAAUGUCAAAAUUAGUGAUGAGGGAAUAGCUUAUCUUGUUAAAGUGUCAGAAGGAGACUUAAGAAAAGCCAUUACAUUUCUUCAA", "bound/input enrichment": "0.302 ratio"}
{"Oligonucleotide": "AGGGGCAAAAUUCUUAAUGUACGGGAAGCUUCUCAUAAACAGAUCAUGGAAAAUGCUGAAAUAAAUAAUAUUAUUAAAAUAGUUGGUCUACAAUAUAAGAAAAGUUACGAUGAUGCAGAA", "bound/input enrichment": "1.42 ratio"}
{"Oligonucleotide": "UAUUGAAUUGCUGAGGAUUUUGGGAAAAGACAAAUCAAAGUUCCCAUUCCAUGGAUCCCUUAGGUGCACCUUCCCAGUUUGUGGAUGUGGAUACACUACCAAGCUGGGGUGACUCAUGCC", "bound/input enrichment": "0.238 ratio"}
{"Oligonucleotide": "CCAUUUGCCAGCCUAAUGCGCAUGCUUUCUGCCUCUGGUAACAGGAGUGAGUGAGCCCCUCAGACCUGCACUCUGGGUGUCUCCUGCUUUCAAAGGUUCUUAAUAGUGAAUGCUUUAAAA", "bound/input enrichment": "0.305 ratio"}
{"Oligonucleotide": "GGCCUGACAAAUUAUGCUGCAGCAUAUUGUACUGGCCUGCUGCUGGCCCGCAGGCUUCUCAAUAGGUUUGGCAUGGACAAGAUCUAUGAAGGCCAAGUGGAGGUGACUGGUGAUGAAUAC", "bound/input enrichment": "0.255 ratio"}
{"Oligonucleotide": "UACAGGCAAAGUUGAAUCUUCUGUCUUCCUGGCAAAAAAUGGCAUAAAAACUGAGUUGCUAGCUCAAAUUCCUGGGUUUCAUGGAAUUAUGAUUGAGGCACUACCCUGGUAGUGGCCGUU", "bound/input enrichment": "0.265 ratio"}
{"data": "Series 2", "target": "TAR DNA-binding protein 43, full length, His tag (TARDBP, Homo sapiens, UniProt Q13148, residues 1-414)", "technique": "RNA Bind-n-Seq", "molecule type": "RNA", "matrix": "in vitro", "concentration": "20 nM", "setting": "6-mer, flanks averaged, single round", "together with": "150 mM LiCl", "relative to": "input library", "reading": "higher = stronger binding"}
{"Oligonucleotide": "CCUGAU", "6-mer enrichment (R)": 0.882}
{"Oligonucleotide": "UGGUCG", "6-mer enrichment (R)": 1.08}
{"Oligonucleotide": "AGGAAU", "6-mer enrichment (R)": 0.889}
{"Oligonucleotide": "GAGAUU", "6-mer enrichment (R)": 0.932}
{"Oligonucleotide": "UGCCAA", "6-mer enrichment (R)": 0.895}
{"Oligonucleotide": "GCACGG", "6-mer enrichment (R)": 0.975}
{"Oligonucleotide": "CCUAGC", "6-mer enrichment (R)": 0.88}
{"Oligonucleotide": "UACGGC", "6-mer enrichment (R)": 0.888}
{"Oligonucleotide": "GGUACU", "6-mer enrichment (R)": 0.906}
{"Oligonucleotide": "AACGGG", "6-mer enrichment (R)": 0.941}
{"Oligonucleotide": "CAUGAC", "6-mer enrichment (R)": 0.838}
{"Oligonucleotide": "UACCUA", "6-mer enrichment (R)": 0.863}
{"Oligonucleotide": "AGGUGA", "6-mer enrichment (R)": 1.06}
{"Oligonucleotide": "AUGCUU", "6-mer enrichment (R)": 0.992}
{"Oligonucleotide": "UUGAAG", "6-mer enrichment (R)": 1.02}
{"Oligonucleotide": "GAUGGA", "6-mer enrichment (R)": 1.05}
{"Oligonucleotide": "CAUUGC", "6-mer enrichment (R)": 0.893}
{"Oligonucleotide": "GCUCCC", "6-mer enrichment (R)": 1.11}
{"Oligonucleotide": "GUGACG", "6-mer enrichment (R)": 1.03}
{"Oligonucleotide": "CCUCGU", "6-mer enrichment (R)": 0.899}
{"Oligonucleotide": "GUUCGC", "6-mer enrichment (R)": 0.909}
{"Oligonucleotide": "GCGUAC", "6-mer enrichment (R)": 0.903}
{"Oligonucleotide": "CUUAGU", "6-mer enrichment (R)": 0.936}
{"Oligonucleotide": "AUGACC", "6-mer enrichment (R)": 0.868}
{"Oligonucleotide": "UGGGCC", "6-mer enrichment (R)": 1.09}
{"data": "Series 3", "target": "CCNF, cyclin fold, Cln2 fusion (human)", "technique": "yeast growth competition, sequencing", "matrix": "yeast", "setting": "strong parent motif", "relative to": "not given", "reading": "higher = stronger binding", "parent": "BRCA2 docking peptide (human); PSIKRNLLNEFDR"}
{"Variant": "PSIKRNLLNQFDR [E10Q]", "normalised enrichment score": 1.29}
{"Variant": "PSIKRNLLNWFDR [E10W]", "normalised enrichment score": 2.7}
{"Variant": "PSIRRNLLNEFDR [K4R]", "normalised enrichment score": 4.97}
{"Variant": "PSIKGNLLNEFDR [R5G]", "normalised enrichment score": -0.234}
{"Variant": "PVIKRNLLNEFDR [S2V]", "normalised enrichment score": 1.77}
{"Variant": "PSIKRNLLNEQDR [F11Q]", "normalised enrichment score": 0.849}
{"Variant": "PSIKRNLLNEFDF [R13F]", "normalised enrichment score": 3.06}
{"Variant": "PSIKRNLYNEFDR [L8Y]", "normalised enrichment score": 2.58}
{"Variant": "PSIKRNLLNVFDR [E10V]", "normalised enrichment score": 2.08}
{"Variant": "PSIKRNLLNLFDR [E10L]", "normalised enrichment score": 2.48}
{"Variant": "PNIKRNLLNEFDR [S2N]", "normalised enrichment score": 2.58}
{"Variant": "PSIKRNLLNEFDM [R13M]", "normalised enrichment score": 2.68}
{"Variant": "PSIKRNVLNEFDR [L7V]", "normalised enrichment score": 0.12}
{"Variant": "PSILRNLLNEFDR [K4L]", "normalised enrichment score": 1.76}
{"Variant": "PSIKRNHLNEFDR [L7H]", "normalised enrichment score": 0.292}
{"Variant": "PSIKRNLNNEFDR [L8N]", "normalised enrichment score": 1.93}
{"Variant": "PSIKRNLLNEVDR [F11V]", "normalised enrichment score": 1.79}
{"Variant": "PSIKRNLLNEFCR [D12C]", "normalised enrichment score": 2.79}
{"Variant": "PSIKRNLLTEFDR [N9T]", "normalised enrichment score": 3.27}
{"Variant": "PSIKRNLLNEKDR [F11K]", "normalised enrichment score": 0.454}
{"Variant": "PSIKHNLLNEFDR [R5H]", "normalised enrichment score": 0.0284}
{"Variant": "PSIKRNLLNNFDR [E10N]", "normalised enrichment score": 1.87}
{"Variant": "PSIKRVLLNEFDR [N6V]", "normalised enrichment score": 1.21}
{"Variant": "PSEKRNLLNEFDR [I3E]", "normalised enrichment score": 0.407}
{"Variant": "PSIKRNLLNCFDR [E10C]", "normalised enrichment score": 2.37}
{"data": "Series 4", "target": "RNA binding protein fox-1 homolog 2, RRM domain, GST-SBP tag (RBFOX2, Homo sapiens, UniProt O43251-10, residues 100-194)", "technique": "RNA Bind-n-Seq", "molecule type": "RNA", "matrix": "in vitro", "concentration": "365 nM", "setting": "natural RNA segment, single round, ends assumed", "relative to": "no-protein control", "reading": "higher = stronger binding", "shared flanks, not repeated": "GGGAGUUCUACAGUCCGACGAUC … UGGAAUUCUCGGGUGCCAA", "Construct (chain)": "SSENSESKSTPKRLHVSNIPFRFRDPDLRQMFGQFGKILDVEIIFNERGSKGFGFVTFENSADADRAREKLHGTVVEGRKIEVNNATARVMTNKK"}
{"Oligonucleotide": "UCCCACAGGGGCCAUGUCCUCUCUUAAUAGGUGGCACUACCCCAAACCCAUCUUUUGUUCUCCUAUAUCCUCCUUCUUCUGUUCCAUUUCAGUUCAGUUUCAGCGGUGCC", "RBNS enrichment (R)": 0.912}
{"Oligonucleotide": "GCAUUUAGUUUUGUCUUUCUCAGGGUAUAGUCAAUAUGCCUGCAGGAGUUUCUAUAGCGAGACAUAGAAUAGUAUUCUGAUCAGUUGCCAAAGAAUCUAGGAAAUUAGUU", "RBNS enrichment (R)": 0.532}
{"Oligonucleotide": "AUUUAGUACUGAAACAUGCUCUUUUACCUAACAGUAAACAAGUAUGUUUUGAUAUAUAUCUGUUAAUAUGCUUAUAGUGGUAAGAAAUGGACUUGAGGUCCCAGGAGAUU", "RBNS enrichment (R)": 0.309}
{"Oligonucleotide": "CUAUAGCGGAAAUUCUUAAUAAUGUUUGAAGAAGGGCCCCAUGAUUUCAUUUUGUGCUGAGCCCUCAAAAUUAUGUCUGUUUCGUGGUGGGAAAUAUCCUAUGUUUUCUU", "RBNS enrichment (R)": 0.437}
{"Oligonucleotide": "CCAGUGUUAUCGUGUUUUAUAGCUGCCUUUCUGUGUCUUACACAGUUUGAGAGUAUAUGUUAAUGACUAUUUUUUUUAAAAAUGUUCUAUUGAAACCAGUGUAACAGCAC", "RBNS enrichment (R)": 0.465}
{"Oligonucleotide": "UGGGGCCUCCACUGCUUUUCUAUGGGAGACACUCUUAAUUUAACAGAUGAGAAUAUUUUGAAACUCUGUUCUGACUCUGUACUCAUUUUUUUAUUUAGCUCUUCGGUAAG", "RBNS enrichment (R)": 0.608}
{"Oligonucleotide": "GUCUGCGUGGGCUUUCUGUCUCUCAGCUCCCUUUCCCAGCCCACAGGGACAGAAGUACCAUCCACUUUCAAGUCCAGCUCCUUCCUAAGAGAUUCUUCCACCUUACUCUG", "RBNS enrichment (R)": 0.505}
{"Oligonucleotide": "ACCCCUCCUUCCUGUCUGGUUAGGAAGCCCAAUGCACCCUCUGAGGUCAUCACUUCUGUUCUAUGUUAUUAUCUAGGACUCAACGAGUCAUCUCAAACCAUAUUCUGUGA", "RBNS enrichment (R)": 0.346}
{"note": "For quick reference, copied from above (series 3):"}
{"Variant": "PSIKRNHLNEFDR [L7H]", "normalised enrichment score": 0.292}
{"Variant": "PSIKRNLNNEFDR [L8N]", "normalised enrichment score": 1.93}
{"Variant": "PSEKRNLLNEFDR [I3E]", "normalised enrichment score": 0.407}
{"Variant": "PSIKRNLLNWFDR [E10W]", "normalised enrichment score": 2.7}
{"Variant": "PSIKGNLLNEFDR [R5G]", "normalised enrichment score": -0.234}
{"Variant": "PNIKRNLLNEFDR [S2N]", "normalised enrichment score": 2.58}
{"Variant": "PSIKRNLLNCFDR [E10C]", "normalised enrichment score": 2.37}
